{"data": "Measured values pooled from the literature", "note": "Numbered parts are unrelated; each lists some results of a single study. Positions count from the first letter of the parent shown.", "UniProt P20309, sequence (whole entry, looked up)": "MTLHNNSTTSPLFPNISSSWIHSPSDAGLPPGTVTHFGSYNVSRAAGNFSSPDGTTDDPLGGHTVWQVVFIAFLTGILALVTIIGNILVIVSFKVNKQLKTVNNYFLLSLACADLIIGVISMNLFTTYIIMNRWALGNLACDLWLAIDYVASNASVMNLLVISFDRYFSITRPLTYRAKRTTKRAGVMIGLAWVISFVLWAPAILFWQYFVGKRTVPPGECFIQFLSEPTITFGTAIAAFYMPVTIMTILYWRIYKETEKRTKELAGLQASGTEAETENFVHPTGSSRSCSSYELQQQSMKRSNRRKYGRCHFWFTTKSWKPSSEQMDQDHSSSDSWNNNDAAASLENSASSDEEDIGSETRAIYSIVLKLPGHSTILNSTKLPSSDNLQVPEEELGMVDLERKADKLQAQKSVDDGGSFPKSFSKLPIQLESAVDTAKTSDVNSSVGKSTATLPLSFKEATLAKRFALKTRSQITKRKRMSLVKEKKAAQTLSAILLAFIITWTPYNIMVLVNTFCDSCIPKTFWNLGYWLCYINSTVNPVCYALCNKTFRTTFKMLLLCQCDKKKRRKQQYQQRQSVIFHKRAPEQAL"}
{"data": "Set 1", "target": "Hepatocyte nuclear factor 3-alpha (Foxa1, Mus musculus, UniProt P35582, residues 1-468, full length assumed)", "technique": "EMSA with sequencing", "form": "double-stranded DNA, one strand shown", "matrix": "in vitro", "tested at": "10 and 20 nM", "setting": "whole designed probe, mean of two concentrations, ends assumed", "reference": "negative control set to 0", "reading": "higher = stronger binding", "all sequences stand within": "GTGAGCGGTGCCCATTGATGGGGAAC … TTTCACTGGGATCGTGGGGAC", "Construct (chain)": "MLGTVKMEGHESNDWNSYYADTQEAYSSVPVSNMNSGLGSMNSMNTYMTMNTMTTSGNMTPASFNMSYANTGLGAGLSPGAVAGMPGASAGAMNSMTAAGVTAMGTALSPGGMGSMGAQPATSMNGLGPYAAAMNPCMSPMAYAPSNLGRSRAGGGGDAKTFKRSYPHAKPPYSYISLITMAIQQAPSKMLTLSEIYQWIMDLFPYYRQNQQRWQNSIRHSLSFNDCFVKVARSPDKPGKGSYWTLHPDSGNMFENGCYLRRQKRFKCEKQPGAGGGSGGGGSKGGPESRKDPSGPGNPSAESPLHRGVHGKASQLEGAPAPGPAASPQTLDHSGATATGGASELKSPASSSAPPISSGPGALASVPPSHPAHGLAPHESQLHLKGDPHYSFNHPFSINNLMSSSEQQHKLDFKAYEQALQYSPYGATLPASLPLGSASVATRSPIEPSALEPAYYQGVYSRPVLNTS"}
{"Sequence": "ACACTTCTTCCATTTCCTCAACTCCTAAACATTCATTTATTCATTCTTCATCACACAAAAATCTGAATCTGGCTTCTGCCCCCTACCCTCCTTATTTACTTTCTCAAATAGTATACATATAGTCTTTAAACAAACATACATACATGCATATTTTCAAGATTATCAAGCAATTCCTGTTTCAACTTTTCTTAAA", "normalised bound fraction [ratio]": 0.436}
{"Sequence": "TACTGAATAATAATTATTAAGCTATATACTTACAGAAAAGAGGATATGAAAATATTAATCAAGTATGAGCTGAACTGGTAACTTTTATGCACTGTCAACAAGAGATCTAAGATTTTTATTGAGCTCCTACCATAAAGACACATCATTTCAATTCAACCATCAGTAGCCTCTACTTTTTAAAAAAATATTTTTA", "normalised bound fraction [ratio]": 0.0481}
{"Sequence": "CTCCAGGGTAGTTGTCCTTCCTGTGGCTGCTCACTGATCCAGGCTACTTTGATCTTGTGACTCAAAGTTCAACAAAATGTGGATGCGTCATTTTATTTACACTTCAATGGCCCTTACGAAATAGAAGGCCTCATCCAGTTGCAAGAAGTTTGGGAAATGTAGCCTTCCATATTTACAGGAATAAATGAAAAAC", "normalised bound fraction [ratio]": 0.285}
{"Sequence": "ATCTTCCCCCTCTTCCTTGCCCCACCAGCTCACCTTCCCGGGTTATTTGCAGATAGGAAAATAAATAAAGCCGGCATTCGTTAACCCTCTTCACGCGCATACTGCTGTTTGCTCTGGATCTAACATGGTCCTTTGGCGAGGCGTGGCTCCGGGAGAGCAAAGCACCGTGTCAGGGCCATGATCCGGGCTCGCC", "normalised bound fraction [ratio]": 0.35}
{"Sequence": "CGTATTTCTTCTTGTACAGAATATGTATCTGGGGGCATTGTAGAGTTTTGATATATATTTGATGAACTACTGAATAAATATTCTTATGTTTTCATGTTTACTTTTCTATACATATTTCCCCCTTCCTGAGATAACTCTTCGTTTCCCCCCAAAATACCTAAAACAATGAAGTTTTGAGCCGAGCTTTTTGAGC", "normalised bound fraction [ratio]": 0.475}
{"Sequence": "AGCAGAACTAATTTATCAATTCCTTAAATACATATTAATGCATACCAAGGGCAGACACTCTGACTTAATAGGAGGATATTGAGAATAAATATAAGTAAACAAGAAATTTTATAATATGTTAGAAGATAGTAAATGCTGTAAAAAATATTTAGAGTGAGGAAAAGGAGTTCAAGACAGCAGAAAAAAAAGTGAA", "normalised bound fraction [ratio]": 0.406}
{"Sequence": "GGCCATAAATACATATTCATATACATTTGACTAAATGCCACATATGCTTTAACATTTTCTTTTAAGAAAATGTAACACTTTGAAGATTCAGTGTAAACATCCAAATAGTAAACTAAATGATTTCCTTAGCTCCTTGACATATCCTAGAGTATCTATTTTAGTTTATAAATATGATTTTAAAAAATTAGGTACA", "normalised bound fraction [ratio]": 0.225}
{"Sequence": "TCGGCCAGCCTGGCTTCTGCGCCCCGCCAGGAGGTCGCGGAGCGGAGCGCGGCCAGGAAGTGAGCTGAGAGTGACAGCTCCCCCCACGCGAGAATAAACAAACATCCACACACTGGATGACTCATTCCTCTTCTTTCTTTCGGGAGGAGGGGAGAAAGGAGCGGGAGGGCGGGCGGGCAGGGGAGAGGCAGGC", "normalised bound fraction [ratio]": 0.303}
{"data": "Set 2", "target": "CCND2, cyclin fold, Cln2 fusion (human)", "technique": "yeast growth competition, sequencing", "matrix": "yeast", "setting": "weak parent motif", "reference": "not given", "reading": "higher = stronger binding", "starting sequence": "viral docking peptide; KKAKRRLFTISDS; partner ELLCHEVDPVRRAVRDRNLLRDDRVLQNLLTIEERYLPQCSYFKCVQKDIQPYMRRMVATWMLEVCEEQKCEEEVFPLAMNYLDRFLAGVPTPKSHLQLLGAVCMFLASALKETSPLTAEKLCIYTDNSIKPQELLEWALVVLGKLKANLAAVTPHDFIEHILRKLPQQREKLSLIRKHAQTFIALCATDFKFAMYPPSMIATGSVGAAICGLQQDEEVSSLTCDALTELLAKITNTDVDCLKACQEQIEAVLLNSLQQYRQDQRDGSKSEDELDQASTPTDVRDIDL"}
{"Variant": "KKAKKRLFTISDS [R5K]", "normalised enrichment score": -0.282}
{"Variant": "KKAKARLFTISDS [R5A]", "normalised enrichment score": 0.307}
{"Variant": "KKAKRRLATISDS [F8A]", "normalised enrichment score": 0.26}
{"Variant": "KKAKRRLFTASDS [I10A]", "normalised enrichment score": -0.00666}
{"Variant": "KKAKRRAFTISDS [L7A]", "normalised enrichment score": -0.107}
{"Variant": "KKAKRRLFTIADS [S11A]", "normalised enrichment score": 0.524}
{"Variant": "KKAKRRLLTISDS [F8L]", "normalised enrichment score": 0.32}
{"Variant": "AKAKRRLFTISDS [K1A]", "normalised enrichment score": 0.276}
{"Variant": "KKAKARAFTISDS [R5A L7A]", "normalised enrichment score": -0.085}
{"data": "Set 3", "target": "CRIPT, C-terminal peptide", "technique": "DHFR complementation, deep sequencing", "matrix": "yeast", "setting": "single substitutions, model-inferred values", "reference": "wild type", "reading": "higher = weaker binding", "starting sequence": "ERBIN, PDZ domain 1 (human); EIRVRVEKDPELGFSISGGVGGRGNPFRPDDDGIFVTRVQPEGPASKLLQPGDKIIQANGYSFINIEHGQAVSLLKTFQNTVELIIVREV; partner TKNYKQTSV"}
{"Variant": "R38S", "binding free energy change": "-0.0334 kcal/mol"}
{"Variant": "R88P", "binding free energy change": "0.434 kcal/mol"}
{"Variant": "D53I", "binding free energy change": "0.781 kcal/mol"}
{"Variant": "N80R", "binding free energy change": "0.0165 kcal/mol"}
{"Variant": "P10F", "binding free energy change": "-0.428 kcal/mol"}
{"Variant": "I34N", "binding free energy change": "0.192 kcal/mol"}
{"Variant": "I2Q", "binding free energy change": "0.19 kcal/mol"}
{"Variant": "I56P", "binding free energy change": "0.658 kcal/mol"}
{"data": "Further values, each from its own experiment"}
{"SMILES": "O=C(NNS(=O)(=O)c1ccccc1F)c1cc(F)cc(-c2ccccn2)c1", "target": "Muscarinic acetylcholine receptor M3 (CHRM3, Homo sapiens, UniProt P20309)", "read-out": "cell-free assay", "tested at": "10 µM", "quantity": "inhibition", "value": "-17.6%"}
